Experimental data pooled from the literature.
Numbered parts are unrelated; each lists some results of a single study. Substitutions count along the parent as printed.

Set 1
Target: Interferon regulatory factor 3, full length, phosphomimetic (IRF3, Homo sapiens, UniProt Q14653, residues 1-427, S386D/S396D/S398D/S402D/T404D/S405D)
Method: protein-binding microarray
Molecule type: double-stranded DNA, one strand shown
Medium: in vitro
Tested at: 2540 nM top
Notes: 60-bp whole probe
Added: salmon DNA 0.4 mg/ml
Relative to: random background probes
Reading: higher = stronger binding
Measurement: fitted relative affinity
All sequences stand within: GCCTAGCAC … GTCTTGATTCGCTTGACGCTGCTG
Residues (chain): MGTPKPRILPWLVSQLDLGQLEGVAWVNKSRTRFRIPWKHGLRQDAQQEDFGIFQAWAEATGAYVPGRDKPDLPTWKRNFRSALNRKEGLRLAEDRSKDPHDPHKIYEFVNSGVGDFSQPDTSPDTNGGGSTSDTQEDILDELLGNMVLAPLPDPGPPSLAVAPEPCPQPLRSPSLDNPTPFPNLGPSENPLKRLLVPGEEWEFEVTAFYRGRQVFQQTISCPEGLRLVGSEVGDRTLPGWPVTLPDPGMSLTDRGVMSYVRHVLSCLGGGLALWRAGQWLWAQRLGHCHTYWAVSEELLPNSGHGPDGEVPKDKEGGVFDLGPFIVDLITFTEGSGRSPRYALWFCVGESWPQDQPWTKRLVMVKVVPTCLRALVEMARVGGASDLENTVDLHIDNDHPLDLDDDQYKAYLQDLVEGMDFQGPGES
Sequence = TCAAGGTTTTCTCTGGTACTGTGCTAG; result = -0.431 z-score
Sequence = GACGCTTTCGGGACTGGGGACGTGCTA; result = 1.84 z-score
Sequence = GACGAACTGAGCCTGGAGACGTGCTAG; result = -0.47 z-score
Sequence = TTAGATTTCAGTTCCAATTAGTGCTAG; result = 3.34 z-score
Sequence = TTAGATTCCCTTTTCCTTTAGTGCTAG; result = 7.56 z-score
Sequence = GACGGTTGCGGTTTCGGGACGTGCTAG; result = 6.62 z-score
Sequence = TCATATGTGTATATATAACTGTGCTAG; result = 0.406 z-score
Sequence = GGTCCTCTCTCTATTCAGAGGTGCTAG; result = 1.78 z-score
Sequence = TCATATTTAAGACCTATGACTGTGCTA; result = 0.712 z-score
Sequence = TCAGATATCGGGACTGGATTAGTGCTA; result = 0.342 z-score
Sequence = TTAGGACTGGGTTTTGGTTAGTGCTAG; result = -0.265 z-score
Sequence = GACGATCTCAGACTGGAGAAGTGCTAG; result = 0.267 z-score
Sequence = TTAGGTATCCATCTCCTTTAGTGCTAG; result = 5.02 z-score
Sequence = TCAAATTAGTGTTTCCCACTGTGCTAG; result = 1.78 z-score
Sequence = TTAGATATCGGTTTCGATTAGTGCTAG; result = 5.47 z-score
Sequence = TTAGGTATCGGTCTCGGATAGTGCTAG; result = 4.15 z-score
Sequence = TCATATATGCATGTAAAACTGTGCTAG; result = 0.499 z-score
Sequence = GACGGTATCGCGACTGGGGACGTGCTA; result = 0.0305 z-score
Sequence = TTAGGTTTCGACGCTGGGTTAGTGCTA; result = 1.1 z-score

Set 2
Target: ABI1, truncated, D143A, DHFR fusion (Arabidopsis thaliana)
Method: DHFR PCA, deep sequencing
Medium: yeast
Notes: methotrexate growth selection, single substitutions
Added: (+)-ABA 0.0091 µM
Relative to: wild-type fitted maximum
Reading: higher = stronger binding
Measurement: relative binding score
Starting sequence: PYL1, truncated, DHFR fusion (Arabidopsis thaliana); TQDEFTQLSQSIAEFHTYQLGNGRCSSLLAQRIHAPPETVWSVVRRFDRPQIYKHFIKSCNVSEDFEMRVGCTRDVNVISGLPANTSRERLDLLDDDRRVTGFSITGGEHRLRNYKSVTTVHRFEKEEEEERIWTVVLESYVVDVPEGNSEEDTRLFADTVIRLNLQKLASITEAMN
Substitution = W41A; result = -7.82%
Substitution = T17Y; result = -3.32%
Substitution = E128D; result = 47%
Substitution = Y115C; result = 1.4%
Substitution = W134F; result = 23.6%
Substitution = I12A; result = 1.96%
Substitution = R111H; result = 14.7%
Substitution = F124Q; result = 5.96%
Substitution = T86C; result = 28.6%
Substitution = T106A; result = -2.98%
Substitution = M68S; result = 0.323%
Substitution = R155K; result = 41.5%

Set 3
Target: Fragile X messenger ribonucleoprotein 1, C-terminal low-complexity region (Fmr1, Mus musculus, UniProt P35922)
Method: RNA Bind-n-Seq
Molecule type: RNA
Medium: in vitro
Tested at: 200 nM
Notes: whole 134-nt RNA, ends assumed
Added: 150 mM LiCl
Relative to: input library
Reading: higher = stronger binding
Measurement: log2 enrichment
Library: 7-deaza-guanosine replaces G
All sequences stand within: GGGAGUUCUACAGUCCGACGAUC … UGGAAUUCUCGGGUGUCAAGG
Sequence = CCUGUGCUACACAUCGUAUGUACCGAAUCGGGAAAAAGGGUUUUUUUGGGUUUUUUUGGGAAAGUAUUAUGUUACGCCGUUCGGAUCUGC; result = -2.56
Sequence = CUCAAGUCCUGUGCUACACAUCGUAUGUACCGAAUCGGUUUUUGGUGGAAAGGAAAGUAUUAUGUUACGCCGUUCGGAUCUGCACUUCCA; result = 0.0836
Sequence = UGGGAGGUGGAUUUUGUUUAUUUUUUUAGCUCAUUUCCAGGGGUGGGAAUUAUUUUUUAAUAUGUGUCAUGAAUAAAGUUGUUUUUGAAA; result = -0.105
Sequence = UAGGAAAACCGUCUUCAGAUACAGUCCCUAAGCCCAAGAGAGCCCCAAAACAGAAGAAAGUAGUAGAGGCUGUAAACUCUGACUCGGAUU; result = 1.11
Sequence = CUCAAGUCCUGUGCUACACAUCGUAUGUACCGAAUCGGCCCGGCCCGGGCCCGGAAAGUAUUAUGUUACGCCGUUCGGAUCUGCACUUCC; result = -1.41
Sequence = UGGGAGGUGGAUUUUGUUUAUUUUUUUAGCUCAUUUCCAGGGGUGGGAAUUUUUUUUUAAUAUGCGUCAUGAAUAAAGUUGUUUUUGAAA; result = 0.0692
Sequence = UCCUCAAGUCCUGUGCUACACAUCGUAUGUACCGAAUCGGGGAGGAGGGAGGAAAGUAUUAUGUUACGCCGUUCGGAUCUGCACUUCCAG; result = -0.551
Sequence = CAAGUCCUGUGCUACACAUCGUAUGUACCGAAUCGGGGCCCGGCCCGGCCCGGGGAAAGUAUUAUGUUACGCCGUUCGGAUCUGCACUUC; result = -1.07

Set 4
Target: CCNE2, cyclin fold, Cln2 fusion (human)
Method: yeast growth competition, sequencing
Medium: yeast
Notes: weak parent motif
Relative to: not given
Reading: higher = stronger binding
Measurement: normalised enrichment score
Starting sequence: MASTL docking peptide (human); PMIAKNLMCELDE; partner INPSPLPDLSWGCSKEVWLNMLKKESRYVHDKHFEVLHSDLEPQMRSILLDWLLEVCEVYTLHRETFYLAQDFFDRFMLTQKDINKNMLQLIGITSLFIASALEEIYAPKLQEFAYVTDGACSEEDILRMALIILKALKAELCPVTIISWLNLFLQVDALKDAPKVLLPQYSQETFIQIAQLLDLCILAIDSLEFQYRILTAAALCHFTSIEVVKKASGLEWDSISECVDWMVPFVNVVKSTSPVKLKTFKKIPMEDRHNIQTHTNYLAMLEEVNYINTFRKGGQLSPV
Substitution = PLIAKNLMCELDE [M2L]; result = -0.231
Substitution = PMIALNLMCELDE [K5L]; result = -0.0297
Substitution = PMIAKNTMCELDE [L7T]; result = -0.184
Substitution = PMIAKNKMCELDE [L7K]; result = 0.166
Substitution = PPIAKNLMCELDE [M2P]; result = -0.0844
Substitution = PMIAKNLMCPLDE [E10P]; result = 0.109
Substitution = PWIAKNLMCELDE [M2W]; result = 0.102
Substitution = PMIAKNLMCEIDE [L11I]; result = 0.176
Substitution = PMIAKNLTCELDE [M8T]; result = -0.339
Substitution = PMIAKNVMCELDE [L7V]; result = -0.29
Substitution = PMIAKNLMCETDE [L11T]; result = -0.247
Substitution = PEIAKNLMCELDE [M2E]; result = -0.181
Substitution = PCIAKNLMCELDE [M2C]; result = -0.366
Substitution = PMIAKNLMPELDE [C9P]; result = -0.0622
Substitution = PMIAKNLMGELDE [C9G]; result = -0.328
Substitution = PMIAKNLMWELDE [C9W]; result = -0.433

A few entries again (set 4):
Substitution = PWIAKNLMCELDE [M2W]; result = 0.102
Substitution = PLIAKNLMCELDE [M2L]; result = -0.231
Substitution = PMIAKNLMPELDE [C9P]; result = -0.0622
Substitution = PMIAKNLMWELDE [C9W]; result = -0.433
Substitution = PMIAKNKMCELDE [L7K]; result = 0.166
